Measurements from different studies.
Protocols differ between the studies behind these lines. ± gives the spread as reported.

`CO[C@H]1N(OC)c2ccccc2[C@@]12CN=C(Nc1cc(C(F)(F)F)cc(C(F)(F)F)c1)S2` (relative stereo) — result for “S phase cells”: 7.05 ± 1.35% (HCT-116; PI flow cytometry; 40 µM, 24 h).
`C[C@@H](C(=O)Nc1ccc(Cn2cc(C(F)(F)F)ccc2=O)cc1)N(C)C` gave an inhibition of 49.4% (NIH3T3; cell growth or viability, CCK-8; 500 µM).
`COc1c(CC=C(C)C)c(O)cc2c1[C@@H]1Oc3c(ccc(O)c3CC=C(C)C)[C@@H]1CO2` — result for glucose consumption: “inactive” (3T3-L1 adipocytes; activator; up to 100 µM).
For `Cc1cc([C@H](C(=O)N2C[C@H](O)C[C@H]2C(=O)N[C@@H](CC(=O)N2CCC(N3CCC(C#Cc4ccc(C(=O)N[C@H]5C(C)(C)[C@H](Oc6ccc(C#N)c(Cl)c6)C5(C)C)cc4)CC3)CC2)c2ccc(-c3scnc3C)cc2)C(C)C)on1`, “WNT7B and MYC expression” read “inhibited” (MDA-MB-453; mRNA and protein; concentration not given, 24 h, with: 1 nM R1881).
`CCCC[C@H](NC(=O)[C@H](Cc1ccccc1)NC(=O)[C@H](Cc1c[nH]cn1)NC(=O)CCNC(=O)[C@@H](NC(=O)[C@H](C)NC(=O)[C@H](Cc1c[nH]c2ccccc12)NC(=O)[C@H](CCC(N)=O)NC(=O)[C@H](N)Cc1ccc(O)cc1)C(C)C)C(N)=O` — result for “EGFR tyrosine phosphorylation”: 4.5 fold (NCI-H1299-BRS-3; Western blot; 100 nM, 2 min; reference: untreated).
With `COc1cc(CNC(=O)C[C@H](C)CCC=C(C)C)ccc1OCc1cn(-c2ccc(Cl)cc2Cl)nn1` the growth percent was 66.3% (NCI-H226; SRB; 10 µM, 48 h).
`CC/C=C\C/C=C\C/C=C\C/C=C\C/C=C\C/C=C\CCC(=O)Nc1ccn(C2OC(CO)C(O)C2(F)F)c(=O)n1` (stereo not drawn) has a TGI of 25.1 µM (SNB-75; NCI60 screen).
For `CCCC[C@H](NC(=O)CNC(=O)CNC(=O)CN1CCN(CC(=O)O)CCN(CC(=O)O)CC1)C(=O)N[C@H]1CC(=O)NCCCC[C@@H](C(N)=O)NC(=O)[C@H](Cc2c[nH]c3ccccc23)NC(=O)[C@H](CCCNC(=N)N)NC(=O)[C@@H](Cc2ccccc2)NC(=O)[C@H](Cc2c[nH]cn2)NC1=O` [technetium-99m labelled], the blocked uptake was ~75% (B16/F10; cellular uptake; concentration not given, 2 h, 25 °C, with: unlabelled NDP-MSH 6.07 nmol).
The GI50 of `CC(=C(c1ccc(O)cc1)c1ccc(Cl)cc1)c1ccc(Cl)cc1` is reported as 0.69 µM (SF-295; cell growth or viability, SRB).
Under “cells in G1 phase”, `C=C(C)[C@@H]1CC[C@]2(C(=O)OCO/N=[N+](\[O-])N3CCCC3)CC[C@]3(C)[C@H](CC[C@@H]4[C@@]5(C)CC[C@H](OC(C)=O)C(C)(C)[C@@H]5CC[C@]43C)[C@@H]12` is recorded as 46.3% (B16-F10; PI flow cytometry; 0.50 µM).
For `CC(=O)OC[C@H]1O[C@@H](Sc2sc(C(=O)c3ccc(Br)cc3)c(N)c2-c2nc3ccccc3s2)[C@H](OC(C)=O)[C@@H](OC(C)=O)[C@H]1OC(C)=O`, the growth was 74.5% (SNB-75; SRB; 10 µM, 48 h; reference: untreated).
The survival decrease of `CC(C)[C@H](NC(=O)[C@@H]1CCCN1C(=O)[C@H](CCCNC(=N)N)NC(=O)[C@H](CS)NC(=O)[C@H](Cc1c[nH]c2ccccc12)NC(=O)[C@H](CCCNC(=N)N)NC(=O)[C@@H](Cc1ccccc1)NC(=O)[C@H](Cc1c[nH]cn1)NC(=O)[C@H](CCC(=O)O)NC(=O)[C@H](CS)NC(=O)[C@H](CS)NC(=O)CCNC(=O)[C@@H]1CC(=O)N[C@@H](CCCNC(=N)N)C(=O)NCC(=O)N[C@@H](CC(=O)O)C(=O)N[C@H](Cc2ccc(O)cc2)C(=O)N1)C(N)=O` is reported as 71% (B16/F1; 0.1 µM, 3 h, 37 °C, read 5 days later; reference: untreated).
`NCCCCCO[C@H]1O[C@H](COS(=O)(=O)O)[C@@H](O[C@@H]2O[C@@H](C(=O)O)[C@@H](O[C@H]3O[C@H](COS(=O)(=O)O)[C@@H](O[C@@H]4O[C@@H](C(=O)O)[C@@H](O[C@H]5O[C@H](COS(=O)(=O)O)[C@@H](O[C@@H]6O[C@@H](C(=O)O)[C@@H](O)[C@H](O)[C@H]6OS(=O)(=O)O)[C@H](O)[C@H]5NS(=O)(=O)O)[C@H](O)[C@H]4OS(=O)(=O)O)[C@H](O)[C@H]3NS(=O)(=O)O)[C@H](O)[C@H]2OS(=O)(=O)O)[C@H](O)[C@H]1NS(=O)(=O)O`: “cell surface heparan sulfate” “no effect” (human corneal epithelial cells; flow cytometry; concentration not given).
`C[n+]1ccc(/C=N/NC(=O)c2cccc(C(=O)N/N=C/c3cc[n+](C)c4ccccc34)n2)c2ccccc21` gave a GI50 of 57.1 ± 6.5 µM (A549 cisplatin-resistant; CellTiter-Glo; 96 h).
`COc1ccc2c(c1CC=C(C)C)O[C@H]1c3cc4c(cc3OC[C@@]21O)OC(C)(C)C=C4`: glucose consumption “inactive” (3T3-L1 adipocytes; activator; up to 100 µM).
`Nc1ccn(C[C@@H](CO)OCP(=O)(O)OCCCS(=O)(=O)CCCCCCCCCCCCC2CCC2)c(=O)n1` — result for “intracellular CDV and CDV-PP level”: ~3 (HFF; 30 nM, 72 h, unit not given; reference: brincidofovir-treated cells).
`O=S(=O)(CCC(F)(F)F)Nc1ccc(Oc2ncccc2-c2ccnc(N[C@H]3CCCNC3)n2)c2ccccc12`: “XBP1 mRNA splicing” “inhibited” (INS1 with Dox-inducible IRE1α; inhibitor, RNA-Seq; 20 µM, 4 h, with: doxycycline 5 ng/mL).
`COc1cc(CNC(=O)C[C@H](C)CCC=C(C)C)ccc1OCc1cn(-c2ccc(Cl)c(Cl)c2)nn1` gave a growth percent of 69.3% (UACC-62 melanoma cells; SRB; 10 µM, 48 h).
`COc1ccc([C@@H]2CC(=O)c3c(O)cc(O[C@@H]4O[C@H](CO[C@@H]5O[C@@H](C)[C@H](O)[C@@H](O)[C@H]5O)[C@@H](O[C@H]5O[C@H](CO)[C@@H](O)[C@H](O)[C@H]5O)[C@H](O)[C@H]4O)cc3O2)cc1O` gave an invasion of 24.4% (A549; Matrigel Transwell invasion; 150 µg/mL, 48 h).
Under “duration of m6A inhibition”, `CC1(C)CCN(Cc2ccc(C(=O)NC[C@]3(O)CCCN(c4cc(NCc5ccccc5)ncn4)C3)c(O)c2)CC1` is recorded as ≥ 6 days (U2OS; measured: m6A in mRNA; 40 µM).
`CCCc1c(O)c(O)cc(C(=O)O)c1COC1OC(CO)C(O)C(O)C1O` (stereo not drawn): reporter activity “no effect” (SW480; β-catenin-dependent transcription, TOPFLASH luciferase reporter; concentration not given).
`O=Cc1c(O)ccc2ccccc12`: “log2 fold change” 2.7 (HUVEC; RNA sequencing, measured: HGFAC; 75 µM, 24 h; reference: DMSO).
For `CCOP(=O)(OCC)C(Cc1c(F)c(F)c(Sc2ccc(OC)cc2)c(F)c1F)Nc1ccccc1` (stereo not drawn), “reduction of clonogenic potential” read 25% (T98G; 50 µM; reference: untreated).
`COc1cc2c(OC3OCC(OC)C(OC)C3OC(=O)c3ccc(Br)cc3)c3c(c(-c4ccc5c(c4)OCO5)c2cc1OC)C(=O)OC3` (stereo not drawn) — result for mRNA level: “decreased” (FaDu; qRT-PCR, measured: CTSD; 0.1, 1, 2 µM, 36 h, with: bafilomycin A1 0.1 µM; reference: DMSO).
`O=C(N1CCCC1)n1cc(-c2ccc(-c3ccccc3)cc2)nn1` gave an SILAC ratio of 1.18 ± 0.26 (mouse T-cells; N-terminal labeled proteins, N-terminal enrichment proteomics, measured: SKP1A; 1 nM, 6 h; reference: DMSO).
`CC1=[N+]2N=C(c3ccccc3)[O][Pd-2]2([Cl])[O+]=C2Oc3ccccc3C=C21` (stereo not drawn): “late apoptotic cells” 49 fold (HeLa; annexin V/PI flow cytometry; IC50, 24 h; reference: untreated).
The growth percent of `COc1cc(CNC(=O)C[C@H](C)CCC=C(C)C)ccc1OCc1cn(-c2ccccc2Cl)nn1` is reported as 59.7% (NCI-H226; SRB; 10 µM, 48 h).
For `O=C(CSc1nc2ccccc2s1)Nc1nonc1[N+](=O)[O-]`, luciferase signal read “no inhibition” (HEK293T transfected with f-Nluc; NanoLuc reporter, NanoGlo counter-screen; concentration not given).
`COc1ccc2c(c1)/C(=N\Nc1nnc3n1N=C(c1ccccc1)CS3)C(=O)N2`: “number of sensitive cell lines” 52 (NCI-60 cell line panel; 10 µM, growth inhibition above 10%).
`COc1cc(CNC(=O)C[C@H](C)CCC=C(C)C)ccc1OCc1cn(-c2ccccc2)nn1` gave a growth percent of 79.5% (NCI-H226; SRB; 10 µM, 48 h).
Under protein level, `CN1CCN(C(=O)N(CCCCCCC(=O)NO)c2ccc(-c3ccc4cnn(C)c4c3)cc2)CC1` is recorded as “increased” (RPMI-8226; immunoblot, measured: DACT3; 300 and 1000 nM, 24 h).
The growth percent of `COc1cc(CNC(=O)C[C@H](C)CCC=C(C)C)ccc1OCc1cn(-c2ccc([N+](=O)[O-])cc2)nn1` is reported as 44.9% (K562 leukaemia cells; SRB; 10 µM, 48 h).
The necrotic cells of `Cc1ccc(C(C)C)cc1.Oc1ccccc1C=NNC1=Nc2ccccc2-c2[nH]c3ccc(Br)cc3c2C1.[Cl-].[Cl][Ru+]` is reported as 14% (SW480; annexin V/PI flow cytometry; 5 µM, 48 h).
